# Results pooled from the literature.
# “And” joins repeats or separate records; there may be more than shown. Numbers after ± are the reported error.
# TMEM97: Sigma intracellular receptor 2 (TMEM97, Homo sapiens, UniProt Q5BJF2)
# UniProt Q5BJF2, sequence (whole entry, looked up): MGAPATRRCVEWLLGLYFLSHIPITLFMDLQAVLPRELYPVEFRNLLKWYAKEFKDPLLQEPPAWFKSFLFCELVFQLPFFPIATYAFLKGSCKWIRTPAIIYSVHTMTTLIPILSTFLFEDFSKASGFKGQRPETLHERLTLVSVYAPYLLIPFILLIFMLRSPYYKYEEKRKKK
# PPARG: Peroxisome proliferator-activated receptor gamma (PPARG, Homo sapiens, UniProt P37231)
# UniProt P37231, sequence (whole entry, looked up): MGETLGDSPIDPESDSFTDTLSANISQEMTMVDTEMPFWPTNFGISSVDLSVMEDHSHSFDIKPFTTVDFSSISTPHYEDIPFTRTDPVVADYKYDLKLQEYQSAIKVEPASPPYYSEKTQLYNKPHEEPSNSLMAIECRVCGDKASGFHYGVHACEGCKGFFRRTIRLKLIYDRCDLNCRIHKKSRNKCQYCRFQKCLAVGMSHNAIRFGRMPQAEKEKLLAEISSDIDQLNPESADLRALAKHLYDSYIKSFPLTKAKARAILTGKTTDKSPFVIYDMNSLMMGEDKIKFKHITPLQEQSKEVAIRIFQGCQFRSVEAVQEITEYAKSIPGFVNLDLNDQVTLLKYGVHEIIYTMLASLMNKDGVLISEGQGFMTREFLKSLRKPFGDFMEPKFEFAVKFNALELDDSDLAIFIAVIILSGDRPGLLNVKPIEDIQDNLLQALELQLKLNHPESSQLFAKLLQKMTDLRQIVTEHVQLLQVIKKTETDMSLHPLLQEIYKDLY
# PPM1D: Protein phosphatase 1D (PPM1D, Homo sapiens, UniProt O15297)
# UniProt Q9SZU7, sequence (whole entry, unmodified, looked up): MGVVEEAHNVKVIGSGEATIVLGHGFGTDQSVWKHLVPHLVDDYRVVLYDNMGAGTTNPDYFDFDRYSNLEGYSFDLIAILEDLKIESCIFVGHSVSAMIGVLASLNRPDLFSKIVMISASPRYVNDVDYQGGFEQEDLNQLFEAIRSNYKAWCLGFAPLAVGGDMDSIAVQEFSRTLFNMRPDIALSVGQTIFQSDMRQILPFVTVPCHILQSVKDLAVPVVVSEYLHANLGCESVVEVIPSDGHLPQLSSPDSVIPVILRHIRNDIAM
# UniProt P10145, sequence (whole entry, looked up): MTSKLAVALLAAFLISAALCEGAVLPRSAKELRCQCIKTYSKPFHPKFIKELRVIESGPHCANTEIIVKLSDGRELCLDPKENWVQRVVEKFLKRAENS
# UniProt O15297, sequence (whole entry, looked up): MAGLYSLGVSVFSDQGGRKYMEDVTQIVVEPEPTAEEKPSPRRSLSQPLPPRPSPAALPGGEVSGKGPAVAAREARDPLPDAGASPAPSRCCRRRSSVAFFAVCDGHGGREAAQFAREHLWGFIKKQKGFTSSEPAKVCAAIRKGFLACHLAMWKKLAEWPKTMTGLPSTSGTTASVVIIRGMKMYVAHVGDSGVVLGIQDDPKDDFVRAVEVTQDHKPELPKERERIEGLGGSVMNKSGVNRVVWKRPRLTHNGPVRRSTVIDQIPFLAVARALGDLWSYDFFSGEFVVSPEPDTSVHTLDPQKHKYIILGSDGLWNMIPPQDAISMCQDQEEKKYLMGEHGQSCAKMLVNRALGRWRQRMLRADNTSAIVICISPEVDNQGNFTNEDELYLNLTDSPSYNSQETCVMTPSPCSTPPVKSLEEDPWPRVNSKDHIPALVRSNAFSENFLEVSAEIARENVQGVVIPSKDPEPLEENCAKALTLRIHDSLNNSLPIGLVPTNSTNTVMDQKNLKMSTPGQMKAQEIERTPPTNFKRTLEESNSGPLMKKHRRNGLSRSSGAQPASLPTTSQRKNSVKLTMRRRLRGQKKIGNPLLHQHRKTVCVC
# UniProt Q9HB29, sequence (whole entry, looked up): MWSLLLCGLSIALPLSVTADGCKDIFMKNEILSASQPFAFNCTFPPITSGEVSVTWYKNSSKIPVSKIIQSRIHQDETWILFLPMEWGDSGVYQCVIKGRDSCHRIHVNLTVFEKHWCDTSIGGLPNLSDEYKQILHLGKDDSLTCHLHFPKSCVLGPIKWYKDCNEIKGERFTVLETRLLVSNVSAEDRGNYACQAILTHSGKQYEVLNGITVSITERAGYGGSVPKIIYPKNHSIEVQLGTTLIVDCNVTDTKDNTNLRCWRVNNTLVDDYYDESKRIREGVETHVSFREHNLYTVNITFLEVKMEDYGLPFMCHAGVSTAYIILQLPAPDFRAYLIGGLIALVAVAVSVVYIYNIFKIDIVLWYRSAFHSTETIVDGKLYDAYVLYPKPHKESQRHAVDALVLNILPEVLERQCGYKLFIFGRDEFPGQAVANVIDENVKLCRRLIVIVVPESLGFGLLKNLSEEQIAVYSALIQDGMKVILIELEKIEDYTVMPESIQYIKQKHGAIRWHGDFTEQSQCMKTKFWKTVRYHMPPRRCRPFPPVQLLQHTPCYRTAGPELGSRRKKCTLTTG
# UniProt Q8N1Q1, sequence (whole entry, looked up): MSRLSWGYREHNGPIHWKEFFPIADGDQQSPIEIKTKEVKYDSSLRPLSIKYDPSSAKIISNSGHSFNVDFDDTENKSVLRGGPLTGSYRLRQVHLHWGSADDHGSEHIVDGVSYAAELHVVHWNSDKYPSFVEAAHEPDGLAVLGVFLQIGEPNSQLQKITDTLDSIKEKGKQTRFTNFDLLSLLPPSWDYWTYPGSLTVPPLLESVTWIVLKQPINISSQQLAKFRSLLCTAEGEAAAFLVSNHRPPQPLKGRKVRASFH
# UniProt Q15303, sequence (whole entry, looked up): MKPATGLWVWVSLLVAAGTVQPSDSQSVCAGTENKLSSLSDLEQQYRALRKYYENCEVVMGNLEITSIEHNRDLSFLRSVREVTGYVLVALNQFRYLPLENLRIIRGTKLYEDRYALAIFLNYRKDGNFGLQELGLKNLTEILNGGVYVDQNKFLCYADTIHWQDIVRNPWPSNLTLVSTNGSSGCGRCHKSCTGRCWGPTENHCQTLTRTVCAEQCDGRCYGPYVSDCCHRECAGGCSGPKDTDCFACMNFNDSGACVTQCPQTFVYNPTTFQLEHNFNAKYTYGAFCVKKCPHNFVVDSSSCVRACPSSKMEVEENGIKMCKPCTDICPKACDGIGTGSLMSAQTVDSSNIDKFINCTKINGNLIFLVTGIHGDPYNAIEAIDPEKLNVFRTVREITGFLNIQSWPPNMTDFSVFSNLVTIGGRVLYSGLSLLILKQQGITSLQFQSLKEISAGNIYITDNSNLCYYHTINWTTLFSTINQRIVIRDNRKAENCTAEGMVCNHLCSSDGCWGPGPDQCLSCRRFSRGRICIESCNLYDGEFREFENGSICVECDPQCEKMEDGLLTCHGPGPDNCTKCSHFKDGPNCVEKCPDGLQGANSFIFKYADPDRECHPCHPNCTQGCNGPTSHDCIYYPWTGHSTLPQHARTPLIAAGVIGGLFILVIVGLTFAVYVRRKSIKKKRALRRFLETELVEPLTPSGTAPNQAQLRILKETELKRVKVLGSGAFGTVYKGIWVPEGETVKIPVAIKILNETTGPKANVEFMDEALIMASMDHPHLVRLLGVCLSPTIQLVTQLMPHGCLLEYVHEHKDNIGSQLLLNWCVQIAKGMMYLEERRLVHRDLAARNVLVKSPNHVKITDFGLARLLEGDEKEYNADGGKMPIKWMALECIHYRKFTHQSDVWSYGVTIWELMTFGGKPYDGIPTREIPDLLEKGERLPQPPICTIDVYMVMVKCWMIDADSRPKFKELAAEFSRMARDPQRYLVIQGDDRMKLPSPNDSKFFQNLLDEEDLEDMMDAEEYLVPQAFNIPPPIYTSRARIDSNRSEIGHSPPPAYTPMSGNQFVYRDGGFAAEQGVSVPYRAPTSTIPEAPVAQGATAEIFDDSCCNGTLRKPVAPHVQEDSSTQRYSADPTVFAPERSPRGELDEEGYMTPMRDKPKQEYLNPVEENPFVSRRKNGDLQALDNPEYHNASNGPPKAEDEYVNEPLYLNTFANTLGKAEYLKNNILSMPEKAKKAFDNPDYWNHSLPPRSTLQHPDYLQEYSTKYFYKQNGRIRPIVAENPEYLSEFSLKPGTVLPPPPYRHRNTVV
# UniProt Q9NZC2, sequence (whole entry, looked up): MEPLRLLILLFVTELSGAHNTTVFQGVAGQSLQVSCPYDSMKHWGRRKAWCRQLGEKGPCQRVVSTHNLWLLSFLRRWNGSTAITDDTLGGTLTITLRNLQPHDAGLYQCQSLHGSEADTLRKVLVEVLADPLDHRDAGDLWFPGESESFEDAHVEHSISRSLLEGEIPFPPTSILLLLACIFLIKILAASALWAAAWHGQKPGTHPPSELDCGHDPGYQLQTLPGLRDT
# UniProt A0A109QYD3, sequence (whole entry, unmodified, looked up): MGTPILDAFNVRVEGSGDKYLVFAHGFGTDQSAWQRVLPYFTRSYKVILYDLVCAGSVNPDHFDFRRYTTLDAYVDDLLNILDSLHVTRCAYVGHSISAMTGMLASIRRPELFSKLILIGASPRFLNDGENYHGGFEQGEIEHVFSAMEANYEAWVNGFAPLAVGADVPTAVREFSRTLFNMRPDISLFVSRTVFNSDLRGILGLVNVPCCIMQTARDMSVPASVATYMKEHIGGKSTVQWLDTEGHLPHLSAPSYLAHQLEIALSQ
# UniProt Q13976, sequence (whole entry, looked up): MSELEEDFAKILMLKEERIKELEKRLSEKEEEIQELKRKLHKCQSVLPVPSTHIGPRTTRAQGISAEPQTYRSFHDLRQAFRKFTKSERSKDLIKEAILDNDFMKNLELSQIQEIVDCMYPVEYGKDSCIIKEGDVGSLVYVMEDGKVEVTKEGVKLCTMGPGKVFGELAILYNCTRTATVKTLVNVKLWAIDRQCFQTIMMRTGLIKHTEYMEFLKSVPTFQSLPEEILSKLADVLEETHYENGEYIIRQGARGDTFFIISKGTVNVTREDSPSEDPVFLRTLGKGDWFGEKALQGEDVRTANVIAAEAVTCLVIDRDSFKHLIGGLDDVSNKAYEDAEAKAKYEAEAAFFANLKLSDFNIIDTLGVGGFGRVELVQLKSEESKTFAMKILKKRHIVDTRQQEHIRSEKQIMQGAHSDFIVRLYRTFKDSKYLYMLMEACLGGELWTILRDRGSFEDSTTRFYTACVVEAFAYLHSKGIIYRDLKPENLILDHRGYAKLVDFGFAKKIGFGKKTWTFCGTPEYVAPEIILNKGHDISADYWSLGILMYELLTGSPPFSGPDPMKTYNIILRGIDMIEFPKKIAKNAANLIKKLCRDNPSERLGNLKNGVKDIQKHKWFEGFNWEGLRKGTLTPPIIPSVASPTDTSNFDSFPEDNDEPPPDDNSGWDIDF
Structure (SMILES),target,assay,conditions,Kd
C[C@H](NC(=O)[C@H](C)NC(=O)[C@H](C)NC(=O)[C@H](Cc1c[nH]cn1)NC(=O)[C@H](Cc1c[nH]cn1)NC(=O)[C@H](CCCCN)NC(=O)[C@H](CCC(=O)O)NC(=O)[C@H](Cc1c[nH]cn1)NC(=O)[C@H](Cc1ccccc1)NC(=O)[C@H](CCCCN)NC(=O)[C@H](CCCNC(=N)N)NC(=O)[C@H](CCCNC(=N)N)NC(=O)[C@H](Cc1ccc(O)cc1)NC(=O)CN)C(=O)N[C@@H](C)C(=O)N[C@@H](C)C(=O)N1CCC[C@H]1C(=O)N[C@@H](Cc1ccccc1)C(=O)O,TMEM97,SPR,"pH 7.4, 25 °C",22.7 ± 5.3 µM
Cc1c(Cc2ccc(F)c(OC(C)C(=O)O)c2)c2ccc(C(=O)NC(C)c3ccc(C(C)(C)C)cc3)cc2n1CC(C)C (stereo not shown),PPARG,"ligand displacement, TR-FRET",,0.00301 µM
O=C(Nc1ccc(C(F)F)cc1)[C@H](CC1CCCCC1)Nc1nn2c(=O)ccnc2s1,PPM1D,binding,,0.0077 µM
Cc1c(Cc2cc(F)cc(OC(C)(C)C(=O)O)c2)c2ccc(C(=O)N[C@@H](C)c3cccc(C(C)(C)C)c3)cc2n1CC(C)C,PPARG,"ligand displacement, TR-FRET",,0.000761 µM
CC1=C(C)[C@H](Oc2c(F)cc3c(C)cc(=O)oc3c2F)OC1=O,"RMS3 (Lathyrus oleraceus, UniProt A0A109QYD3, S96C)","binding, fluorescence",,55.4 µM
Cc1c(Cc2ccc(Cl)c(OC(C)C(=O)O)c2)c2ccc(C(=O)NC(C)c3ccc(C(C)(C)C)cc3)cc2n1CC1CC1 (stereo not shown),PPARG,"ligand displacement, TR-FRET",,0.000636 µM
Cc1cccc2c1N(C(=O)n1ccnn1)CC2,"KAI2 (Arabidopsis thaliana, UniProt Q9SZU7, H246A)",ITC,H246A mutant,66.7 µM and 78.1 µM and 128 µM
C[C@H](NC(=O)[C@H](C)NC(=O)[C@H](CCCNC(=N)N)NC(=O)[C@H](Cc1ccc(O)cc1)NC(=O)CN)C(=O)N[C@@H](C)C(=O)N[C@@H](Cc1c[nH]cn1)C(=O)N[C@@H](CCC(=O)O)C(=O)N[C@@H](CCCCN)C(=O)N[C@@H](Cc1c[nH]cn1)C(=O)N[C@@H](Cc1c[nH]cn1)C(=O)N[C@@H](CO)C(=O)N[C@@H](Cc1c[nH]cn1)C(=O)N[C@@H](CCCNC(=N)N)C(=O)N[C@@H](CCC(=O)O)C(=O)N[C@@H](Cc1ccccc1)C(=O)N1CCC[C@H]1C(=O)N[C@@H](Cc1ccccc1)C(=O)O,TMEM97,SPR,"pH 7.4, 25 °C",10.1 ± 1.8 µM
NS(=O)(=O)c1cc(C(=O)NCCCC(=O)O)c(NC2CCCCC2)cc1Cl,"CA13 (Homo sapiens, UniProt Q8N1Q1)",,pH 7,10 µM
C#CCCCn1cnc(N)c2nc(Sc3ccc(C)cc3C)nc1-2,"HSP90AA1 (Homo sapiens, UniProt P07900)","binding, ITC",,541 µM
CC(=O)N[C@@H]1[C@@H](O[C@@H]2O[C@H](C(=O)O)[C@@H](O[C@@H]3O[C@H](COS(=O)(=O)O)[C@@H](OS(=O)(=O)O)[C@H](O[C@@H]4O[C@H](C(=O)O)[C@@H](OS(=O)(=O)O)[C@H](OS(=O)(=O)O)[C@H]4OS(=O)(=O)O)[C@H]3NC(C)=O)[C@H](OS(=O)(=O)O)[C@H]2OS(=O)(=O)O)[C@H](OS(=O)(=O)O)[C@@H](COS(=O)(=O)O)O[C@H]1N=[N+]=[N-],"Interleukin-8 (CXCL8, Homo sapiens, UniProt P10145)","binding, ITC",,0.0337 µM and 0.0368 µM and 0.032 µM
Cc1c(Cc2cccc(OC(C)(C)C(=O)O)c2)c2ccc(C(=O)N[C@@H](C)c3cccc(C(C)(C)C)c3)cc2n1CC1CCC1,PPARG,"ligand displacement, TR-FRET",,0.00237 µM
N#Cc1cnc2sc(C(=O)O)cc2c1N1CCc2[nH]nc(C(=O)N[C@@H](CC(=O)NCCOCCN3CCOCC3)c3cccc(Br)c3)c2C1,"Interleukin-1 receptor-like 2, D1-D2 domains (IL1RL2, Homo sapiens, UniProt Q9HB29)","binding, surface plasmon resonance",IL-36R D1-D2 domains,0.072 µM
Cc1c(Cc2ccc(Cl)c(O[C@@H](C)C(=O)O)c2)c2ccc(C(=O)N[C@@H](C)c3cc(F)cc(C(C)(C)C)c3)cc2n1C,PPARG,"ligand displacement, TR-FRET",,0.00183 µM
C=CC(=O)N1CCCN(C(=O)c2cc(Sc3cnc(NC(=O)C4CC4)s3)c(C)cc2OC)C[C@H]1C,"ERBB4 (Homo sapiens, UniProt Q15303)","binding, competition with immobilised ligand",,> 10 µM
CN(C)c1ccc2c(-c3cc(C(=O)NCCNC(=O)[C@H](CC4CCCCC4)NC(=O)c4ccc(CNc5ccccn5)s4)ccc3C(=O)O)c3ccc(=[N+](C)C)cc-3oc2c1,PPM1D,binding,,0.15 µM
CC(=O)c1cnc2ccc(-c3cc(Cl)c(O)c(Cl)c3)nc2c1N[C@H]1CC[C@H](CN(C)C)CC1,"BRI1 (Arabidopsis thaliana, UniProt O22476)","binding, SPR",,> 100 µM
N=C(N)c1ccc(CNC(=O)CNC(=O)[C@@H](COCc2ccccc2)NS(=O)(=O)Cc2ccccc2)cc1,"F10 (Homo sapiens, UniProt P00742)","binding, BLI",,0.137 µM
CCn1c(C)c(Cc2ccc(Cl)c(O[C@H](C)C(=O)O)c2)c2ccc(C(=O)N[C@@H](C)c3ccc(C(C)(C)C)cc3)cc21,PPARG,"ligand displacement, TR-FRET",,0.00257 µM
C[C@H](NC(=O)[C@H](C)NC(=O)[C@H](C)NC(=O)[C@H](Cc1ccccc1)NC(=O)[C@H](CCCCN)NC(=O)[C@H](CCCNC(=N)N)NC(=O)[C@H](CCCNC(=N)N)NC(=O)[C@H](Cc1ccc(O)cc1)NC(=O)CN)C(=O)N[C@@H](C)C(=O)N[C@@H](C)C(=O)N[C@@H](CO)C(=O)N[C@@H](Cc1c[nH]cn1)C(=O)N[C@@H](CCCNC(=N)N)C(=O)N[C@@H](CCC(=O)O)C(=O)N[C@@H](Cc1ccccc1)C(=O)N1CCC[C@H]1C(=O)N[C@@H](Cc1ccccc1)C(=O)O,TMEM97,SPR,"pH 7.4, 25 °C",> 50 µM
Cc1oc(-c2ccc(C(F)(F)F)cc2)nc1COc1ccc(S(=O)(=O)N2c3ccccc3C[C@@H]2C(=O)O)cc1,"Triggering receptor expressed on myeloid cells 2 (Homo sapiens, UniProt Q9NZC2)","binding, SPR",,95.6 µM
CC(C)C[C@@H]1NC(=O)[C@@H](NC(=O)[C@H](C)N)CSCCC(=O)N2CN3CN(C2)C(=O)CCSC[C@H](NC(=O)[C@@H]2CCCN2C(=O)[C@H](CO)NC(=O)[C@H](Cc2ccc(O)cc2)NC1=O)C(=O)N[C@@H](Cc1c[nH]c2ccccc12)C(=O)N[C@@H](Cc1c[nH]cn1)C(=O)N1CCC[C@H]1C(=O)N[C@@H](CC(C)C)C(=O)N[C@@H](CC(N)=O)C(=O)N[C@@H](CC(=O)O)C(=O)N[C@H](C(=O)N[C@@H](C)C(=O)N(C)CC(=O)N(C)CC(=O)N(C)CC(=O)N(C)CC(=O)N(C)CC(=O)N(C)CC(=O)N[C@@H](CCCCNC(=O)CCCC[C@@H]1SC[C@@H]2NC(=O)N[C@@H]21)C(N)=O)CSCCC3=O,"Tumor necrosis factor receptor superfamily member 4, extracellular domain (TNFRSF4, Homo sapiens, UniProt P43489)","binding, surface plasmon resonance",,0.637 µM
Cc1c[nH]c2nccc(-c3ccc(C(=O)N[C@@H]4c5c(F)cc(C(F)F)cc5C[C@@H]4O)cn3)c12,"PRKG1 (Homo sapiens, UniProt Q13976)","binding, competition with immobilised ligand",,0.195 µM
N=C(N)NCCC[C@H](N)C(=O)N[C@@H](CCCCN)C(=O)N[C@@H](Cc1ccccc1)C(=O)N[C@@H](Cc1c[nH]cn1)C(=O)N[C@@H](CCC(=O)O)C(=O)N[C@@H](CCCCN)C(=O)N[C@@H](Cc1c[nH]cn1)C(=O)N[C@@H](Cc1c[nH]cn1)C(=O)O,TMEM97,SPR,"pH 7.4, 25 °C",22.1 ± 5.1 µM
Cc1c(Cc2cccc(OC(C)(C)C(=O)O)c2)c2ccc(C(=O)N[C@@H](C)c3ccc(C(C)(C)C)cc3)cc2n1CC1CCC1,PPARG,"ligand displacement, TR-FRET",,0.00114 µM
C=CC(=O)N1CC2(CCN(c3nc(OC4CCN(CCCOC)CC4)nc4c(OCC(F)(F)F)c(-c5c(C)ccc6[nH]ncc56)c(C5CC5)cc34)CC2)C1,"GTPase KRas, GDP-bound (KRAS, Homo sapiens, UniProt P01116, G12V)","binding, surface plasmon resonance",,36.5 ± 1.6 µM
CCC(C)n1c(C(=O)Nc2cnc(C(=O)NC)n(CC(C)C)c2=O)ncc(NC(=O)c2ncc(NC(=O)c3ccccc3)c(=O)n2Cc2ccc(OC)cc2)c1=O (stereo not shown),"Heat shock protein HSP 90-alpha, C-terminal domain (HSP90AA1, Homo sapiens, UniProt P07900)","binding, microscale thermophoresis, measured: C-terminal domain",together with: labelled CTD 50 nM,3.4 ± 1 µM
Cc1c(Cc2cc(F)cc(OC(C)(C)C(=O)O)c2)c2ccc(C(=O)N[C@@H](C)c3cc(F)cc(C(C)(C)C)c3)cc2n1CC1CCC1,PPARG,"ligand displacement, TR-FRET",,0.00109 µM

# A few entries again:
Structure (SMILES),target,assay,conditions,Kd
CC1=C(C)[C@H](Oc2c(F)cc3c(C)cc(=O)oc3c2F)OC1=O,"RMS3 (Lathyrus oleraceus, UniProt A0A109QYD3, S96C)","binding, fluorescence",,55.4 µM
Cc1c(Cc2ccc(Cl)c(OC(C)C(=O)O)c2)c2ccc(C(=O)NC(C)c3ccc(C(C)(C)C)cc3)cc2n1CC1CC1 (stereo not shown),PPARG,"ligand displacement, TR-FRET",,0.000636 µM
Cc1cccc2c1N(C(=O)n1ccnn1)CC2,"KAI2 (Arabidopsis thaliana, UniProt Q9SZU7, H246A)",ITC,H246A mutant,66.7 µM and 78.1 µM and 128 µM
C[C@H](NC(=O)[C@H](C)NC(=O)[C@H](CCCNC(=N)N)NC(=O)[C@H](Cc1ccc(O)cc1)NC(=O)CN)C(=O)N[C@@H](C)C(=O)N[C@@H](Cc1c[nH]cn1)C(=O)N[C@@H](CCC(=O)O)C(=O)N[C@@H](CCCCN)C(=O)N[C@@H](Cc1c[nH]cn1)C(=O)N[C@@H](Cc1c[nH]cn1)C(=O)N[C@@H](CO)C(=O)N[C@@H](Cc1c[nH]cn1)C(=O)N[C@@H](CCCNC(=N)N)C(=O)N[C@@H](CCC(=O)O)C(=O)N[C@@H](Cc1ccccc1)C(=O)N1CCC[C@H]1C(=O)N[C@@H](Cc1ccccc1)C(=O)O,TMEM97,SPR,"pH 7.4, 25 °C",10.1 ± 1.8 µM
NS(=O)(=O)c1cc(C(=O)NCCCC(=O)O)c(NC2CCCCC2)cc1Cl,"CA13 (Homo sapiens, UniProt Q8N1Q1)",,pH 7,10 µM
